{"data": "Measurements of several laboratories", "target": "Protein kinase C alpha type (PRKCA, Homo sapiens, UniProt P17252)", "note": "Several values in a cell are separate wells, animals, samples, runs or records."}
{"SMILES": "NC(=O)C[C@H]1CCc2sc3ncnc(O[C@H]4CC[C@H](N5CCOCC5)CC4)c3c21", "assay": "enzyme activity, inhibitor", "setting": "10 µM", "endpoint": "inhibition", "result": "8%"}
{"SMILES": "Cc1cccc(-c2ccc3nc(NC(=O)C4CCCCC4)nn3c2)c1", "assay": "enzyme activity, Dundee kinase panel", "setting": "10 µM", "endpoint": "remaining activity", "result": "110%"}
{"SMILES": "CN1CC[C@@H](COc2cnc(C#N)cc2-c2ccn3nc(NC(=O)C4CC4)cc3c2)C1", "assay": "enzyme activity, inhibitor", "setting": "1 µM", "endpoint": "inhibition", "result": "3%"}
{"SMILES": "C=CC(=O)Nc1cccc(-c2cnc3[nH]cc(C(=O)NC(C)(C)C)c3n2)c1", "assay": "kinase activity", "setting": "0.1 µM", "endpoint": "inhibition", "result": "35% and 33%"}
{"SMILES": "O=C=[N][Ru-4]123([n]4c5ccc(O)cc5c5c6c(c7cc(F)c[n+]1c7c54)C(=O)NC6=O)[S+]1CC[S+]2CC[S+]3CC1 (centres unmarked)", "assay": "enzyme activity", "setting": "100 nM, human enzyme, with: 10 µM ATP", "scale": "relative to: untreated", "endpoint": "remaining activity", "result": "113%"}
{"SMILES": "O=C(O)CCC(=O)c1cccc(NS(=O)(=O)c2c[nH]c3ncccc23)c1", "assay": "kinase activity, radiometric", "setting": "10 µM", "endpoint": "remaining activity", "result": "85%"}
{"SMILES": "O=C(Cc1ccc(OCc2ccccc2)cc1)NC1(C(=O)O)CCN(C(=O)c2ccc(-c3cccc(Cl)c3)cc2)CC1", "assay": "enzyme activity, inhibitor", "setting": "10 µM", "endpoint": "activity vs control", "result": "92%"}
{"SMILES": "C=CC(=O)N1Cc2nc(-c3cc(-c4cc(Cl)cnc4Cl)c(F)cc3F)n(-c3ccncn3)c2C1", "assay": "cell-free assay", "setting": "1 µM", "endpoint": "inhibition", "result": "3.9%"}
{"SMILES": "Cc1ccc(C)c(-c2ccc3nc(NC(=O)C4CCCCC4)nn3c2)c1", "assay": "enzyme activity, Dundee kinase panel", "setting": "10 µM", "endpoint": "remaining activity", "result": "95%"}
{"SMILES": "COc1cc(-n2cc3cc(F)cc(C(N)=O)c3n2)cc(Cl)c1C1CC(O)(CCO)Cc2ccccc21 (centres unmarked)", "assay": "enzyme activity, inhibitor", "setting": "10 µM", "endpoint": "inhibition", "result": "6.04%"}
{"SMILES": "COc1ccc(C(=O)/C=C/c2ccccc2-c2c[nH]c3ccc(C#N)cc23)c(O)c1", "assay": "enzyme activity, inhibitor", "setting": "20 µM", "endpoint": "inhibition", "result": "10%"}
{"SMILES": "Cc1cccc(O[C@H]2CCC[C@@H](C(C)CNCc3ccncc3)C2)c1 (relative stereo)", "assay": "enzyme activity", "setting": "1 µM", "endpoint": "inhibition", "result": "1%"}
{"SMILES": "COc1c(OCCCN2CCOCC2)ccc2c1N=C(NC(=O)c1cnc(N)nc1)N1CCN=C21", "assay": "kinase activity, inhibitor", "setting": "1 µM", "scale": "relative to: untreated control", "endpoint": "remaining activity", "result": "120%"}
{"SMILES": "Nc1ncc(-c2cc(-c3cnn(CC(F)(F)F)c3)ncc2F)nc1C(=O)NC1CNCC(F)C1 (centres unmarked)", "assay": "enzyme activity", "setting": "1 µM", "scale": "relative to: DMSO control", "endpoint": "remaining activity", "result": "87.9%"}
{"note": "A few entries again:"}
{"SMILES": "COc1c(OCCCN2CCOCC2)ccc2c1N=C(NC(=O)c1cnc(N)nc1)N1CCN=C21", "assay": "kinase activity, inhibitor", "setting": "1 µM", "scale": "relative to: untreated control", "endpoint": "remaining activity", "result": "120%"}
{"SMILES": "Nc1ncc(-c2cc(-c3cnn(CC(F)(F)F)c3)ncc2F)nc1C(=O)NC1CNCC(F)C1 (centres unmarked)", "assay": "enzyme activity", "setting": "1 µM", "scale": "relative to: DMSO control", "endpoint": "remaining activity", "result": "87.9%"}
